Results gathered from unrelated publications.
A part holds a random share of what one study measured. Changes are numbered by the printed parent chain.

Set 1 — method: DHFR PCA, deep sequencing; medium: yeast; with: (+)-ABA 0.11 µM; reference: wild-type fitted maximum; reading: higher = stronger binding
Target: ABI1, truncated, D143A, DHFR fusion (Arabidopsis thaliana)
Setting: methotrexate growth selection, single substitutions
Parent: PYL1, truncated, DHFR fusion (Arabidopsis thaliana); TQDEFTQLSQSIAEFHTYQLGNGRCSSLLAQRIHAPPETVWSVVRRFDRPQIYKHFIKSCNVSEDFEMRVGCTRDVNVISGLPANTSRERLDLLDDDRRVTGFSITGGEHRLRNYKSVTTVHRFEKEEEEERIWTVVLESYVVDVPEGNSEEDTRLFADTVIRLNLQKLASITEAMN
| Change | relative binding score [%] |
| --- | --- |
| G102I | -4.67 |
| T106Q | 7.52 |
| D153I | -6.68 |
| E131G | 63.5 |
| A158N | 11.9 |
| T160E | 11 |
| L164H | 15.5 |
| M176A | 19.3 |
| K54V | 1.47 |
| V143G | 4.03 |
| H122T | -5.11 |
| G102H | -9.02 |
| L82V | 19.6 |
| T73A | 10.7 |
| D159Q | -9.11 |
| N77A | 47.8 |
| V78G | 15.3 |
| M176R | 12 |
| E147G | -1.37 |
| L91P | -1.14 |
| T6K | 55.7 |
| L94E | -5.97 |

Set 2 — method: RNA Bind-n-Seq; molecule type: RNA; medium: in vitro; tested at: 1 µM; setting: whole 134-nt RNA, ends assumed; with: 150 mM KCl; reference: input library; reading: higher = stronger binding
Target: Ras GTPase-activating protein-binding protein 1, RRM domain (G3BP1, Homo sapiens, UniProt Q13283)
Chain of UniProt Q13283 (whole entry, looked up): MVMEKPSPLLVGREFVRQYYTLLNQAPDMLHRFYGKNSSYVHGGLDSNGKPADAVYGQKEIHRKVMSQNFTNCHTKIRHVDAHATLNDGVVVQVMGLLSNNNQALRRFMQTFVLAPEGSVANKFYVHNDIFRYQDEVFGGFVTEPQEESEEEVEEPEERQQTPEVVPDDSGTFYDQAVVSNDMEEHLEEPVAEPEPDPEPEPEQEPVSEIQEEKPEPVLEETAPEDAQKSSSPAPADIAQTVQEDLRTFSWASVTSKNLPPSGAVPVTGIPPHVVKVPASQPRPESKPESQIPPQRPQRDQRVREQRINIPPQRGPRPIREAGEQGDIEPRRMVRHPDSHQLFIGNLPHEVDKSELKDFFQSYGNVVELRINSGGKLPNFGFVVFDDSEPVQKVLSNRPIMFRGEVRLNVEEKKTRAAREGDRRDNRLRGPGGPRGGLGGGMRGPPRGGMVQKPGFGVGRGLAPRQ
Shared flanks, not repeated: GGGAGUUCUACAGUCCGACGAUC … UGGAAUUCUCGGGUGUCAAGG
| Strand | log2 enrichment |
| --- | --- |
| AAGUCCUGUGCUACACAUCGUAUGUACCGAAUCGGUUUUGGUUUUGGGGUUUUGGGGAAAGUAUUAUGUUACGCCGUUCGGAUCUGCACU | -0.209 |
| CACAGACAACACGCACCCACACAGACACAGAGGGAAGGGGUUGGAAUGGGGACAGGGUGCACAGCAGGGCGGGGUAGGACCCCAGCCCCU | -0.0367 |
| UGUUCCUGUUGAUGAAAAUCUUUUCACUGGAGAGGAUUUGGAUGAACUAGAAGAAGAAUUAAAUACACUUGAUUUAGAAGAAUGACACCA | -0.13 |
| UCAAGUCCUGUGCUACACAUCGUAUGUACCGAAUCGGGGAGGGGUGGGGAGGGGAAAGUAUUAUGUUACGCCGUUCGGAUCUGCACUUCC | 0.968 |
| UGGGAGGUGGAUUUUGUUUAUUUUUUUAGCUCAUUUCCAGGGGCGGGAAUUUUUUUUUAAUAUGUGUCAUGAAUAAAGUUGUUUUUGAAA | 1.11 |
| UAACUUUAGAGGAGGAUCUGAUGGAUAUGGCAGUGGACGUGGAUUUGGGGAUGGCUAUAAUGGGUAUGGAGGAAGACCUGGAGGUGGCAA | -0.415 |
| AGUCCUGUGCUACACAUCGUAUGUACCGAAUCGGGUGGGUUUUUGGGUUUUUUUGGGAAAGUAUUAUGUUACGCCGUUCGGAUCUGCACU | 0.343 |
| AGAGAAUAAGAAUUCAGCUGACAGGAGGCCUCUAUCCUGUCCCUCCACCCCACCCUCCACCUCAAUCCCCUCCCAUCUUCCCCAGACCUA | 0.0353 |
| CACAGACAACACGCACCCACACGGACACAGAGGGAAGGGGUUGGGAUGGGGACAGGGUGCACAGCAGGGCGGGGUAGGACCCCAGCCCCU | -0.038 |
| CAAGUCCUGUGCUACACAUCGUAUGUACCGAAUCGGGGAAAGGAAAGGGGAAAGGAAAGUAUUAUGUUACGCCGUUCGGAUCUGCACUUC | -0.267 |

Set 3 — target: CREB3L3, bZIP domain (human); method: DHFR protein complementation; medium: yeast; reference: wild-type JUN-FOS pair; reading: higher = stronger binding
Setting: single substitutions, most at no-binding floor
Parent: JUN, bZIP domain (human); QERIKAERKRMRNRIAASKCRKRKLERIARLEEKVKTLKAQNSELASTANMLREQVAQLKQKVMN; partner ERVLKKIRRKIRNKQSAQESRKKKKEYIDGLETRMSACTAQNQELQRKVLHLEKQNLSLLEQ
| Change | binding fitness |
| --- | --- |
| E54S | -1.27 natural log |
| A57L | -1.5 natural log |
| R30L | -1.39 natural log |
| A29R | -1.45 natural log |
| K34E | -1.43 natural log |
| I28A | -1.52 natural log |
| S47N | -1.51 natural log |
| S47F | -1.34 natural log |
| L52A | -1.52 natural log |
| E44Q | -1.45 natural log |
| K39C | -1.4 natural log |
| Q55D | -1.52 natural log |
| A29E | -1.45 natural log |
| E32I | -1.55 natural log |
| E32L | -1.32 natural log |
| E44I | -1.56 natural log |
| E33R | -1.35 natural log |
| A57Q | -1.49 natural log |
| T37P | -1.52 natural log |
| A57W | -1.46 natural log |
| A49P | -1.48 natural log |
| L59V | -1.54 natural log |
| T37K | -1.57 natural log |
| K39A | -1.45 natural log |
| K39F | -1.48 natural log |

Set 4 — target: CCNF, cyclin fold, Cln2 fusion (human); method: yeast growth competition, sequencing; medium: yeast; setting: strong parent motif; reference: not given; reading: higher = stronger binding
Parent: CDC6 docking peptide (human); TLKGRRLVFDNQL
| Change | normalised enrichment score |
| --- | --- |
| L13F | 8.46 |
| F9K | 1.64 |
| L2H | 6.03 |
| N11P | 9.25 |
| Q12L | 10.9 |
| N11I | 8.16 |
| R6D | 0.641 |
| F9H | 0.634 |
| T1N | 9 |
| V8H | 8.49 |
| K3E | 5.78 |
| G4V | 4.83 |
| R6M | 8.05 |
| R6V | 6.29 |
| T1Q | 7.52 |
| R6L | 5.08 |

Set 5 — method: protein-binding microarray; molecule type: double-stranded DNA, one strand shown; medium: in vitro; tested at: not given; reading: higher = stronger binding
Target: Max-binding protein MNT, bHLH-zipper, MAX partner unstated (MNT, Homo sapiens, UniProt Q99583, residues 220-300)
Setting: k-mer, scored over probes, only values ≥0.25
Construct (chain): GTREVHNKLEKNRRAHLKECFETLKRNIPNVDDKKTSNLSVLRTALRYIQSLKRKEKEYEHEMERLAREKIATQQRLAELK
| Strand | E-score |
| --- | --- |
| CAGCCCCA | 0.265 |
| CATGCTGG | 0.412 |
| CGTGGGAC | 0.416 |
| ACATGCTA | 0.367 |
| CCGTGCTC | 0.252 |
| CGTGGAGC | 0.376 |
| ACATGGCC | 0.33 |
| ACCCACCA | 0.252 |
| ATGTGCCA | 0.268 |
| CGTGGCAA | 0.318 |
| ACTCATGC | 0.278 |
| AGACATGC | 0.378 |
| CGCATGAC | 0.384 |
| CTGCGTGA | 0.278 |
| ATGCAGGC | 0.269 |
| ACGTGGTG | 0.437 |
| CGTGTCGC | 0.355 |
| AGGTGGGG | 0.256 |
| CATCGTGC | 0.33 |
| CGCGTGCA | 0.463 |
| ACGTGTAT | 0.456 |
| CATGCAGC | 0.335 |
| ATCACATG | 0.46 |
| CGTGGGTC | 0.335 |
| CGGGGCAC | 0.321 |

Excerpt of the above (set 4):
| Change | normalised enrichment score |
| --- | --- |
| V8H | 8.49 |
| N11P | 9.25 |
| G4V | 4.83 |
| T1Q | 7.52 |
| R6V | 6.29 |
| Q12L | 10.9 |
| N11I | 8.16 |
| F9H | 0.634 |
| L13F | 8.46 |
| R6L | 5.08 |
| F9K | 1.64 |
